Experimental data collected from several papers.
Compare with care: the assays were run in different laboratories. ± marks the error that the study gave.
B1: Tln1 2137-2541 (Mus musculus, UniProt P26039); chain DEATKGTRALEATTEHIRQELAVFCSPEPPAKTSTPEDFIRMTKGITMATAKAVAAGNSCRQEDVIATANLSRRAIADMLRACKEAAFHPEVAPDVRLRALHYGRECANGYLELLDHVLLTLQKPNPDLKQQLTGHSKRVAGSVTELIQAAEAMKGTEWVDPEDPTVIAENELLGAAAAIEAAAKKLEQLKPRAKPKEADESLNFEEQILEAAKSIAAATSALVKAASAAQRELVAQGKVGAIPANALDDGQWSQGLISAARMVAAATNNLCEAANAAVQGHASQEKLISSAKQVAASTAQLLVACKVKADQDSEAMKRLQAAGNAVKRASDNLVKAAQKAAAFEDQENETVVVKEKMVGGIAQIIAAQEEMLRKERELEEARKKLAQIRQQQYKFLPSELRDEH
B2: CRYBA1 (Homo sapiens, UniProt P05813-1); sequence looked up; chain METQAEQQELETLPTTKMAQTNPTPGSLGPWKITIYDQENFQGKRMEFTSSCPNVSERSFDNVRSLKVESGAWIGYEHTSFCGQQFILERGEYPRWDAWSGSNAYHIERLMSFRPICSANHKESKMTIFEKENFIGRQWEISDDYPSLQAMGWFNNEVGSMKIQSGAWVCYQYPGYRGYQYILECDHHGGDYKHWREWGSHAQTSQIQSIRRIQQ
B3: cfbA 1-143 S11H (Methanocaldococcus jannaschii, UniProt Q58380); chain MEALVLVGHGHRLPYSKELLVKLAEKVKERNLFPIVEIGLMEFSEPTIPQAVKKAIEQGAKRIIVVPVFLAHGIHTTRDIPRLLGLIEDNHEHHHEHSHHHHHHHHHEHEKLEIPEDVEIIYREPIGADDRIVDIIIDRAFGR
B4: PTDSS2 1-487 (Homo sapiens, UniProt Q9BVG9); sequence looked up; chain MRRGERRDAGGPRPESPVPAGRASLEEPPDGPSAGQATGPGEGRRSTESEVYDDGTNTFFWRAHTLTVLFILTCTLGYVTLLEETPQDTAYNTKRGIVASILVFLCFGVTQAKDGPFSRPHPAYWRFWLCVSVVYELFLIFILFQTVQDGRQFLKYVDPKLGVPLPERDYGGNCLIYDPDNETDPFHNIWDKLDGFVPAHFLGWYLKTLMIRDWWMCMIISVMFEFLEYSLEHQLPNFSECWWDHWIMDVLVCNGLGIYCGMKTLEWLSLKTYKWQGLWNIPTYKGKMKRIAFQFTPYSWVRFEWKPASSLRRWLAVCGIILVFLLAELNTFYLKFVLWMPPEHYLVLLRLVFFVNVGGVAMREIYDFMDDPKPHKKLGPQAWLVAAITATELLIVVKYDPHTLTLSLPFYISQCWTLGSVLALTWTVWRFFLRDITLRYKETRWQKWQNKDDQGSTVGNGDQHPLGLDEDLLGPGVAEGEGAPTPN
B5: spo0J K257A (Bacillus subtilis, UniProt P26497); chain MAKGLGKGINALFNQVDLSEETVEEIKIADLRPNPYQPRKHFDDEALAELKESVLQHGILQPLIVRKSLKGYDIVAGERRFRAAKLAGLDTVPAIVRELSEALMREIALLENLQREDLSPLEEAQAYDSLLKHLDLTQEQLAKRLGKSRPHIANHLRLLTLPENIQQLIAEGTLSMGHGRTLLGLKNKNKLEPLVQKVIAEQLNVRQLEQLIQQLNQNVPRETKKKEPVKDAVLKERESYLQNYFGTTVNIKRQKKAGKIEIEFFSNEDLDRILELLSERES
B6: CENPF 1-385 (Homo sapiens, UniProt P49454); sequence looked up; chain MSWALEEWKEGLPTRALQKIQELEGQLDKLKKEKQQRQFQLDSLEAALQKQKQKVENEKTEGTNLKRENQRLMEICESLEKTKQKISHELQVKESQVNFQEGQLNSGKKQIEKLEQELKRCKSELERSQQAAQSADVSLNPCNTPQKIFTTPLTPSQYYSGSKYEDLKEKYNKEVEERKRLEAEVKALQAKKASQTLPQATMNHRDIARHQASSSVFSWQQEKTPSHLSSNSQRTPIRRDFSASYFSGEQEVTPSRSTLQIGKRDANSSFFDNSSSPHLLDQLKAQNQELRNKINELELRLQGHEKEMKGQVNKFQELQLQLEKAKVELIEKEKVLNKCRDELVRTTAQYDQASTKYTALEQKLKKLTEDLSCQRQNAESARCSL
B7: trfB R48A/Q53A (Escherichia coli, UniProt P03052); sequence looked up; chain MKKRLTESQFQEAIQGLEVGQQTIEIARGVLVDGKPQATFATSLGLTAGAVSAAVHRVWAAFEDKNLPEGYARVTAVLPEHQAYIVRKWEADAKKKQETKR
B8: human HSPA2; sequence looked up; chain MSARGPAIGIDLGTTYSCVGVFQHGKVEIIANDQGNRTTPSYVAFTDTERLIGDAAKNQVAMNPTNTIFDAKRLIGRKFEDATVQSDMKHWPFRVVSEGGKPKVQVEYKGETKTFFPEEISSMVLTKMKEIAEAYLGGKVHSAVITVPAYFNDSQRQATKDAGTITGLNVLRIINEPTAAAIAYGLDKKGCAGGEKNVLIFDLGGGTFDVSILTIEDGIFEVKSTAGDTHLGGEDFDNRMVSHLAEEFKRKHKKDIGPNKRAVRRLRTACERAKRTLSSSTQASIEIDSLYEGVDFYTSITRARFEELNADLFRGTLEPVEKALRDAKLDKGQIQEIVLVGGSTRIPKIQKLLQDFFNGKELNKSINPDEAVAYGAAVQAAILIGDKSENVQDLLLLDVTPLSLGIETAGGVMTPLIKRNTTIPTKQTQTFTTYSDNQSSVLVQVYEGERAMTKDNNLLGKFDLTGIPPAPRGVPQIEVTFDIDANGILNVTAADKSTGKENKITITNDKGRLSKDDIDRMVQEAERYKSEDEANRDRVAAKNALESYTYNIKQTVEDEKLRGKISEQDKNKILDKCQEVINWLDRNQMAEKDEYEHKQKELERVCNPIISKLYQGGPGGGSGGGGSGASGGPTIEEVD
B9: phage phi29 gene 12 product D1*-D2-D3 89-691 A535V/D457E/G449V/D372A/Q181E/K166R (bacteriophage phi29, UniProt P20345); N-terminal His6; sequence looked up; chain FADLVIQVIDELKQFGVSVKTYGAKGDGVTDDIRAFEKAIESGFPVYVPYGTFMVSRGIKLPSNTVLTGAGKRNAVIRFMDSVGRGESLMYNENVTTGNENIFLSSFTLDGNNKRLGQGISGIGGSRESNLSIRACHNVYIRDIEAVDCTLHGIDITCGGLDYPYLGDGTTAPNPSENIWIENCEATGFGDDGITTHHSQYINILNCYSHDPRLTANCNGFEIDDGSRHVVLSNNRSKGCYGGIEIKAHGDAPAAYNISINGHMSVEDVRSYNFRHIGHHAATAPQSVSAKNIVASNLVSIRPNNKRGFQDNATPRVLAVSAYYGVVINGLTGYTDDPNLLTETVVSVQFRARNCSLNGVVLTGFSNSENGIYVIGGSRGGDAVNISNVTLNNSGRYGVSIGSGIENVSITNISGIGDGINSPVALVSTINSNPEISGLSSIGYPTVARVAGTDYNDGLTLFNGAFRASTTSSGKIHSEGFIMGSTSGCEASVSKSGVLTSSSSKTSSERSLIAGSSTSEAKGTYNTILGSLGAVADEQFAALISASQSRASGNHNLILSSYGINTTGSYKVNGGFEKINWELDSLNGRIKARDTVTGGNTWS
B10: clcA 1-465 C85A/H234C/I201A (Escherichia coli, UniProt P37019); chain MKTDTPSLETPQAARLRRRQLIRQLLERDKTPLAILFMAAVVGTLVGLAAVAFDKGVAWLQNQRMGALVHTADNYPLLLTVAFLASAVLAMFGYFLVRKYAPEAGGSGIPEIEGALEDQRPVRWWRVLPVKFFGGLGTLGGGMVLGREGPTVQIGGNIGRMVLDIFRLKGDEARHTLLATGAAAGLAAAFNAPLAGILFIAEEMRPQFRYTLISIKAVFIGVIMSTIMYRIFNCEVALIDVGKLSDAPLNTLWLYLILGIIFGIFGPIFNKWVLGMQDLLHRVHGGNITKWVLMGGAIGGLCGLLGFVAPATSGGGFNLIPIATAGNFSMGMLVFIFVARVITTLLCFSSGAPGGIFAPMLALGTVLGTAFGMVAVELFPQYHLEAGTFAIAGMGALLAASIRAPLTGIILVLEMTDNYQLILPMIITGLGATLLAQFTGGKPLYSAILARTLAKQEAEQLARSK
B11: NECTIN2 32-350 (Homo sapiens, UniProt Q92692); sequence looked up; chain QDVRVQVLPEVRGQLGGTVELPCHLLPPVPGLYISLVTWQRPDAPANHQNVAAFHPKMGPSFPSPKPGSERLSFVSAKQSTGQDTEAELQDATLALHGLTVEDEGNYTCEFATFPKGSVRGMTWLRVIAKPKNQAEAQKVTFSQDPTTVALCISKEGRPPARISWLSSLDWEAKETQVSGTLAGTVTVTSRFTLVPSGRADGVTVTCKVEHESFEEPALIPVTLSVRYPPEVSISGYDDNWYLGRTDATLSCDVRSNPEPTGYDWSTTSGTFPTSAVAQGSQLVIHAVDSLFNTTFVCTVTNAVGMGRAEQVIFVRETP
B12: INHBA mature (Homo sapiens, UniProt P08476); sequence looked up; chain GLECDGKVNICCKKQFFVSFKDIGWNDWIIAPSGYHANYCEGECPSHIAGTSGSSLSFHSTVINHYRMRGHSPFANLKSCCVPTKLRPMSMLYYDDGQNIIKKDIQNMIVEECGCS
B13: PF1070 1-140 L70A (Pyrococcus furiosus, UniProt Q8U1Y4); sequence looked up; chain MPSSSKSDFSFSTLIIPQHYLRAILKVVSSSSVEVCGFLFGKENRVLKVRFIRNRLNSPVEFEMDPEEMAKALEEAEQENLEVVGIFHSHIACPPIPSGKDLEGMKRWPVIWLIVNEKGEYKAWILSEKNKISEVKIVVE
B14: Saro_1862 1-406 E16K (Novosphingobium aromaticivorans, UniProt Q2G771); chain MTDKPSVLFICTQDTKEEEARFTRAALEAAGVEVVHLDPSVRRSLGGAEISPEMVAQAGGMTIEEVRALGHEGKCQDAMIRGAIAAAHEWDARHPVSGILAVGGSMGSALAGALMQSFPYGLPKLIVSTMASGFTKPYMGVKDIAMMNAVTDISGINTISRDVFRNAANAVAGMAKGYDRDKGPEKPLVLITTLGTTETSVKRIRQALESDGCEVMVFHSSGAGGPTLDGLAADKDVALVLDLSPTEILDHLFGGLADAGPDRGRAALRKGIPTILAPGNADFIIGGPIDAAEAQFPGRRYHQHNPQLTAVRTNVADLRKLADHLAANVREAKGPVRVFTPLKGFSSHDSETGHLLDLSVPGPFAEYLASVMPGHVPVTAVDAHFNDEAFSSAVIAAAREMLAAKN
B15: RB1CC1 1286-1395 (Homo sapiens, UniProt Q8TDY2); chain SLVAELQEKLQEEKAKFLEQLEEQEKRKNEEMQNVRTSLIAEQQTNFNTVLTREKMRKENIINDLSDKLKSTMQQQERDKDLIESLSEDRARLLEEKKKLEEEVSKLRSS
B16: mdh (Escherichia coli, UniProt P61889); sequence looked up; chain MKVAVLGAAGGIGQALALLLKTQLPSGSELSLYDIAPVTPGVAVDLSHIPTAVKIKGFSGEDATPALEGADVVLISAGVARKPGMDRSDLFNVNAGIVKNLVQQVAKTCPKACIGIITNPVNTTVAIAAEVLKKAGVYDKNKLFGVTTLDIIRSNTFVAELKGKQPGEVEVPVIGGHSGVTILPLLSQVPGVSFTEQEVADLTKRIQNAGTEVVEAKAGGGSATLSMGQAAARFGLSLVRALQGEQGVVECAYVEGDGQYARFFSQPLLLGKNGVEERKSIGTLSAFEQNALEGMLDTLKKDIALGEEFVNK

B1 (Tln1 2137-2541)
subunits per oligomer (itself; SEC-MALS): 2

B2 (CRYBA1)
subunits per oligomer (itself; native MS; abundances relative to monomer): 2

human ME2 T60S
Hill coefficient (enzyme activity, NADH absorbance; with fumarate 3 mM, added: L-malate varied): 1.4 ± 0.17

B3 (cfbA 1-143 S11H)
subunits per oligomer (itself; SEC): 2

B4 (PTDSS2 1-487)
subunits per oligomer (itself; cryo-EM): 2

B5 (spo0J K257A)
subunits per oligomer (itself; SEC-MALS): 2

B6 (CENPF 1-385)
subunits per oligomer (itself; SEC-MALS): 2

B7 (trfB R48A/Q53A)
subunits per oligomer (itself; SEC): 2

RBCK1 (Homo sapiens, UniProt Q9BYM8-1)
subunits per oligomer (itself; SEC-MALS): 2

B8 (human HSPA2)
log2 fold change (PP6C (human); co-immunoprecipitation, IP-MS; CYB5R4 knockout cells; concentration not given; baseline: CYB5R4 knockout over parental): -0.0334

B9
subunits per oligomer (itself; crystal structure): 3

B10 (clcA 1-465 C85A/H234C/I201A)
subunits per oligomer (itself; SEC): 2

B11 (NECTIN2 32-350)
subunits per oligomer (itself; SEC-MALS): 2

B12 (INHBA mature)
subunits per oligomer (itself; western blot): 2

B13 (PF1070 1-140 L70A)
subunits per oligomer (itself; SEC): 2

B14 (Saro_1862 1-406 E16K)
subunits per oligomer (itself; SEC): 2

B15 (RB1CC1 1286-1395)
subunits per oligomer (itself; X-ray crystallography): 2

POTE ankyrin domain J (human)
log2 fold change (CYB5R4 knockout human cells; PP4 interaction, 3xFLAG-PP4C IP-MS; concentration not given; baseline: CYB5R4 KO over parental): 0.46

B16 (mdh)
subunits per oligomer (itself; native MS): 2

Some of these lines once more:
B2 (CRYBA1)
subunits per oligomer (itself; native MS; abundances relative to monomer): 2
